Measurements of several laboratories.
Parts stem from different laboratories: compare values within a part only.
UniProt Q9UK32, sequence (whole entry, looked up): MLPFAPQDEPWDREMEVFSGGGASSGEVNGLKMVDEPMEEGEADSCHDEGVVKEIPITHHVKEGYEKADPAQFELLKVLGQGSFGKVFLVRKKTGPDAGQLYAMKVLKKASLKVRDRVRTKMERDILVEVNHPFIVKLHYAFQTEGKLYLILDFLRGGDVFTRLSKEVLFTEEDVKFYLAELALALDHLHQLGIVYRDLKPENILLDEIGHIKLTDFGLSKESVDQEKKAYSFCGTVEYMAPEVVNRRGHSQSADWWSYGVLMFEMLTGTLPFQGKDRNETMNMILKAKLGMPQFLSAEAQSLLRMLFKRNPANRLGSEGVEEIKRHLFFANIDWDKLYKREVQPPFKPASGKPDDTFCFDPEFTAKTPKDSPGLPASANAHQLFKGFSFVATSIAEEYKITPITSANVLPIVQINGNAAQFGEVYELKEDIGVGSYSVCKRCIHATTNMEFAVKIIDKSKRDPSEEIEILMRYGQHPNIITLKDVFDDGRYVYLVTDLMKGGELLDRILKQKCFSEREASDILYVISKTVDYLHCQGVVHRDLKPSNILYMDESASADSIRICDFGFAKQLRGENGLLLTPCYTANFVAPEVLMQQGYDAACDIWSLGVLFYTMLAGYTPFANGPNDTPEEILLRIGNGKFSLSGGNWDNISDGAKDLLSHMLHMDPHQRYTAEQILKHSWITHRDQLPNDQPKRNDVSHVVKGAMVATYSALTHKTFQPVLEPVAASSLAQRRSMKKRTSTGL
UniProt Q8NE63, sequence (whole entry, looked up): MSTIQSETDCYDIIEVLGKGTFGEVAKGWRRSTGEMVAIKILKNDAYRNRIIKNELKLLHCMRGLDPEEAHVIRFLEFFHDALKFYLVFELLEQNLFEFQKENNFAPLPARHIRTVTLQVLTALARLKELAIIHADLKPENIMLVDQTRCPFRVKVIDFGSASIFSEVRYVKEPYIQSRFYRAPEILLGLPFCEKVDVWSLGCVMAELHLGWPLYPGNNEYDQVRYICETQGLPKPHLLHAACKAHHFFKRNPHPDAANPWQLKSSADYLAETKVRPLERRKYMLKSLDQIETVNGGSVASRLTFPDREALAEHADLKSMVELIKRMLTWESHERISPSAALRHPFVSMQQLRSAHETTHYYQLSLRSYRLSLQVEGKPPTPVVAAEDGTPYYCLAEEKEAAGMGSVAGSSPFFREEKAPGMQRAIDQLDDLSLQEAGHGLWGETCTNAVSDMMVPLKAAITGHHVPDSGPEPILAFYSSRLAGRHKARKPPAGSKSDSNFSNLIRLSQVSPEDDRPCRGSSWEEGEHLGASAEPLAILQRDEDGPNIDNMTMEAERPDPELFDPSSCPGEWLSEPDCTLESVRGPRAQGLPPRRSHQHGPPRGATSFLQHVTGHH
UniProt O75385, sequence (whole entry, looked up): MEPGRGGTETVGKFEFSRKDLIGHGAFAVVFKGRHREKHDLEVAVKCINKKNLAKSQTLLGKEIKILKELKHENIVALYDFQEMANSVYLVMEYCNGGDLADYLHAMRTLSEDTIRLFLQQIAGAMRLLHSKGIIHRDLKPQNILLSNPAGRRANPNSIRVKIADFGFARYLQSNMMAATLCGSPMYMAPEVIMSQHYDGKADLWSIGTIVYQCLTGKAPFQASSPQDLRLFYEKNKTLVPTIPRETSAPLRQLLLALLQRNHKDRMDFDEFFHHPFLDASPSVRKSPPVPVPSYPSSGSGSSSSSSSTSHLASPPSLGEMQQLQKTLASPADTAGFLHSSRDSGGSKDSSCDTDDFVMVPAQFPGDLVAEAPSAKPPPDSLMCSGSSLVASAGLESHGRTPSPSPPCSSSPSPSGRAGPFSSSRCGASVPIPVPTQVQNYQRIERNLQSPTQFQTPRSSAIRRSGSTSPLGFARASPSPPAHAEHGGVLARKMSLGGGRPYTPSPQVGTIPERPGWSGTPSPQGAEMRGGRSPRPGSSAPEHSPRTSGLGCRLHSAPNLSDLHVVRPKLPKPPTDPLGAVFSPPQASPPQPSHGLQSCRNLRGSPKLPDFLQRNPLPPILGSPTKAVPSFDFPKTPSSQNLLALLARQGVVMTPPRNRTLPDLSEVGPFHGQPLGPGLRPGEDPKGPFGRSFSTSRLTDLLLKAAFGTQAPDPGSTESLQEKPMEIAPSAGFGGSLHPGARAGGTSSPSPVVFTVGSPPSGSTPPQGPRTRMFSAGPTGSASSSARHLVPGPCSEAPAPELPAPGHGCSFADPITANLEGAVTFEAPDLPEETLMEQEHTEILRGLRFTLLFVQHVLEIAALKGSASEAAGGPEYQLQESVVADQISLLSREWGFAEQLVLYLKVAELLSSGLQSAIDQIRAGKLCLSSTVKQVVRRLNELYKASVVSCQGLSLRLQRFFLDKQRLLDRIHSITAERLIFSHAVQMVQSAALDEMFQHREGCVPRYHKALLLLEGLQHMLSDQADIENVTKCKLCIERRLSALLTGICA
UniProt Q9BYP7, sequence (whole entry, looked up): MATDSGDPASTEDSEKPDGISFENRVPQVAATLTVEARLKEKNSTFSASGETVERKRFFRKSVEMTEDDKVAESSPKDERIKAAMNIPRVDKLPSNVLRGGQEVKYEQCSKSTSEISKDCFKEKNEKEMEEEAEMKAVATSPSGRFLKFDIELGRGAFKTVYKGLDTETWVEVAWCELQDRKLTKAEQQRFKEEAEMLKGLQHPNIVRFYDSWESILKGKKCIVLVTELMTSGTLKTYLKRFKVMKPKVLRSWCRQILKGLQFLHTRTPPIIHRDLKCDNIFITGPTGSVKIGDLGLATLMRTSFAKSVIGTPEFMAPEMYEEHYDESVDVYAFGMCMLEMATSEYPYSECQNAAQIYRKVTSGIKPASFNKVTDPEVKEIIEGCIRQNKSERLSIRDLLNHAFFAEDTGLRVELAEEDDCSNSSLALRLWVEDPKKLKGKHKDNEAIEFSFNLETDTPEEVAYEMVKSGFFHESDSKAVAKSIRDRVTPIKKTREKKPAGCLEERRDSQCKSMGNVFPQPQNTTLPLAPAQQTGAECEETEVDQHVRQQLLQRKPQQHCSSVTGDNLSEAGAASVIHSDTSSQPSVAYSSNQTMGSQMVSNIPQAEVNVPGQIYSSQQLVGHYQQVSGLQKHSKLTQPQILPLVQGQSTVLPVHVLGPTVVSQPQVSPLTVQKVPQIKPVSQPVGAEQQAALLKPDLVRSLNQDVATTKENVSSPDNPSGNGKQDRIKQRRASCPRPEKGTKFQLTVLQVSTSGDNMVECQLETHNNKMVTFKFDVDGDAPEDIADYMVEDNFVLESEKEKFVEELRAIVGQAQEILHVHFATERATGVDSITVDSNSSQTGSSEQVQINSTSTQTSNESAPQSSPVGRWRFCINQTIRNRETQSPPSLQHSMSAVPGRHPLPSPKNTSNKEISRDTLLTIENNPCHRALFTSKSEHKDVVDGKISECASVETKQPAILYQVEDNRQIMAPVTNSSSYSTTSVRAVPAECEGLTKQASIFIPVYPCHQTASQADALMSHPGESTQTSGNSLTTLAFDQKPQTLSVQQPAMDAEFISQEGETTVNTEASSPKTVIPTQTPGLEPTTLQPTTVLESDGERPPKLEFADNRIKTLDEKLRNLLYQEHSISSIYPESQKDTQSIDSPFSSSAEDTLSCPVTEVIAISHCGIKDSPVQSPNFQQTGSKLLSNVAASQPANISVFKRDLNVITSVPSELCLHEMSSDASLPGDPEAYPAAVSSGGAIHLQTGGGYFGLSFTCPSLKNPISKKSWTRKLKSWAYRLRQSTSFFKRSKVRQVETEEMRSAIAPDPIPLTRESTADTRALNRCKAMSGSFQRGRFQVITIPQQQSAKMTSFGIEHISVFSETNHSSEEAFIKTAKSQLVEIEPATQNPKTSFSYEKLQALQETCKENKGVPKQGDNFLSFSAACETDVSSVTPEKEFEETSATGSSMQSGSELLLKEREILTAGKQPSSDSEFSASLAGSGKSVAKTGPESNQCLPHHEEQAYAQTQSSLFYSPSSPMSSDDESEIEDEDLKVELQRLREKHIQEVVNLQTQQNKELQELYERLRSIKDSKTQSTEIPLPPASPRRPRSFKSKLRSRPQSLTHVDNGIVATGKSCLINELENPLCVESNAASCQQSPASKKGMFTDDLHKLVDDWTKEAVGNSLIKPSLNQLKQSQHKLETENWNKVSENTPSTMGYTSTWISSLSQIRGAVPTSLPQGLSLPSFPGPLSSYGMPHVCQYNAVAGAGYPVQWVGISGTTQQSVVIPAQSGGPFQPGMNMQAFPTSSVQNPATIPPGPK
UniProt Q9Y2T5, sequence (whole entry, looked up): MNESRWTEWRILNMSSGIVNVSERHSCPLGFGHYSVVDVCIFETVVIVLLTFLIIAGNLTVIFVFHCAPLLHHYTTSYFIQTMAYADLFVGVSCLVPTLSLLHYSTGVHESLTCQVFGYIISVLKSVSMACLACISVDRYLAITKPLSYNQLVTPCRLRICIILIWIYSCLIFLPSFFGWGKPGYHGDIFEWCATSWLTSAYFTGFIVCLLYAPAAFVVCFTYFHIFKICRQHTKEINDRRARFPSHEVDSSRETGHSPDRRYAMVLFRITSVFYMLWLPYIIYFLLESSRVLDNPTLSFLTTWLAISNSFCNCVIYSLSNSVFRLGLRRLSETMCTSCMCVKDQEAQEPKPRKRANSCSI
UniProt Q15761, sequence (whole entry, looked up): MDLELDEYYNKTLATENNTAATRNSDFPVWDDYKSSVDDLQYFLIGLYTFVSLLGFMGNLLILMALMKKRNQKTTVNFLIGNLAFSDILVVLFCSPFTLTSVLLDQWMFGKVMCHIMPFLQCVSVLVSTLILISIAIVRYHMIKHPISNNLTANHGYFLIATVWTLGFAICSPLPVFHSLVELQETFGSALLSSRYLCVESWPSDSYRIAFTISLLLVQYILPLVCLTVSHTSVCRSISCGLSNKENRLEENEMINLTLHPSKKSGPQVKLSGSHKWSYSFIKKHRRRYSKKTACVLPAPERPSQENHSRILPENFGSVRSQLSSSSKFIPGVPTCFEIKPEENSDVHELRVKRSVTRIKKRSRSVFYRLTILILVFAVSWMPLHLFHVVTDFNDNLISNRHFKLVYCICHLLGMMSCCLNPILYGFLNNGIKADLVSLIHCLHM

Sample 1
Structure (SMILES): c1cc(-c2cnn3cc(-c4ccc(OCCN5CCCCC5)cc4)cnc23)ccn1
Observed: enzyme activity
Action: inhibitor
Concentration: 0.5 µM
Reference: control
Endpoint: remaining activity
Ephrin type-B receptor 4 (EPHB4, Homo sapiens, UniProt P54760): 37.7%
Tyrosine-protein kinase Srms (SRMS, Homo sapiens, UniProt Q9H3Y6): 98%
Dual specificity tyrosine-phosphorylation-regulated kinase 3 (DYRK3, Homo sapiens, UniProt O43781): 76.8%
Ribosomal protein S6 kinase alpha-5 (RPS6KA5, Homo sapiens, UniProt O75582): 83%
Mitogen-activated protein kinase kinase kinase kinase 4 (MAP4K4, Homo sapiens, UniProt O95819): 29%
Cyclin-dependent kinase 6, with cyclin D3 (CDK6, Homo sapiens, UniProt Q00534): 14.8%
Serine/threonine-protein kinase WNK3 (WNK3, Homo sapiens, UniProt Q9BYP7): 78.1%
Phosphorylase b kinase gamma catalytic chain, skeletal muscle/heart isoform (PHKG1, Homo sapiens, UniProt Q16816): 13.7%
Homeodomain-interacting protein kinase 2 (HIPK2, Homo sapiens, UniProt Q9H2X6): 70.8%
Ephrin type-B receptor 1 (EPHB1, Homo sapiens, UniProt P54762): 17%
Tyrosine-protein kinase Blk (BLK, Homo sapiens, UniProt P51451): 84.5%
Ribosomal protein S6 kinase alpha-6 (RPS6KA6, Homo sapiens, UniProt Q9UK32): 74.3%
Tyrosine-protein kinase receptor UFO (AXL, Homo sapiens, UniProt P30530): 91.1%
MAP kinase-activated protein kinase 3 (MAPKAPK3, Homo sapiens, UniProt Q16644): 94.2%
Calcium/calmodulin-dependent protein kinase type II subunit beta (CAMK2B, Homo sapiens, UniProt Q13554): 67.2%
Homeodomain-interacting protein kinase 4 (HIPK4, Homo sapiens, UniProt Q8NE63): 115%
Ephrin type-A receptor 4 (EPHA4, Homo sapiens, UniProt P54764): 37.7%
Serine/threonine-protein kinase 17A (STK17A, Homo sapiens, UniProt Q9UEE5): 48.8%
Cyclin-dependent kinase 4, with cyclin D3 (CDK4, Homo sapiens, UniProt P11802): 60.7%
Cyclin-dependent kinase 1, with cyclin B (CDK1, Homo sapiens, UniProt P06493): 79.3%
Serine/threonine-protein kinase 16 (STK16, Homo sapiens, UniProt O75716): 40.9%
3-phosphoinositide-dependent protein kinase 1 (PDPK1, Homo sapiens, UniProt O15530): 110%

Sample 2
SMILES: CC(C)CN(C)c1nc(N)c(C(=O)N=C(N)N)nc1Cl
Action: agonist
Concentration: 10 µM
Reference: untreated
Endpoint: fold over basal
Thyrotropin receptor (TSHR, Homo sapiens, UniProt P16473); β-arrestin recruitment, PRESTO-Tango: 0.54 fold
G-protein coupled receptor 52 (GPR52, Homo sapiens, UniProt Q9Y2T5); β-arrestin recruitment, PRESTO-Tango: 0.98
Probable G-protein coupled receptor 174 (Homo sapiens, UniProt Q9BXC1); β-arrestin recruitment, PRESTO-Tango: 0.97
Mas-related G-protein coupled receptor MRG (MAS1L, Homo sapiens, UniProt P35410); β-arrestin recruitment, PRESTO-Tango: 0.63
5-hydroxytryptamine receptor 2C (HTR2C, Homo sapiens, UniProt P28335); β-arrestin recruitment, PRESTO-Tango: 0.71
Neuropeptide Y receptor type 5 (NPY5R, Homo sapiens, UniProt Q15761); PRESTO-Tango arrestin recruitment: 7.03
Probable G-protein coupled receptor 148 (GPR148, Homo sapiens, UniProt Q8TDV2); β-arrestin recruitment, PRESTO-Tango: 1.2
Melanin-concentrating hormone receptor 2 (MCHR2, Homo sapiens, UniProt Q969V1); β-arrestin recruitment, PRESTO-Tango: 0.94
Retinoic acid-induced protein 3 (GPRC5A, Homo sapiens, UniProt Q8NFJ5); β-arrestin recruitment, PRESTO-Tango: 0.88
Adhesion G protein-coupled receptor D2 (ADGRD2, Homo sapiens, UniProt Q7Z7M1); β-arrestin recruitment, PRESTO-Tango: 0.64
Prokineticin receptor 1 (PROKR1, Homo sapiens, UniProt Q8TCW9); β-arrestin recruitment, PRESTO-Tango: 1.3

Sample 3
Structure (SMILES): CC1=C(C#N)[C@@H](c2ccc3[nH]nc(C)c3c2)C(C#N)=C(c2ccc(Cl)cc2)N1
Concentration: 1 µM
Endpoint: remaining binding
STE20-like serine/threonine-protein kinase (SLK, Homo sapiens, UniProt Q9H2G2); cell-free assay, competition with immobilised ligand: 100%
Tyrosine-protein kinase ABL1, phosphorylated (ABL1, Homo sapiens, UniProt P00519, H396P); cell-free assay, competition with immobilised ligand: 100%
Dual specificity testis-specific protein kinase 1 (TESK1, Homo sapiens, UniProt Q15569); cell-free assay, competition with immobilised ligand: 100%
Serine/threonine-protein kinase 32A (STK32A, Homo sapiens, UniProt Q8WU08); binding, competition with immobilised ligand: 100%
Serine/threonine-protein kinase ULK1 (ULK1, Homo sapiens, UniProt O75385); cell-free assay, competition with immobilised ligand: 100%
Homeodomain-interacting protein kinase 4 (HIPK4, Homo sapiens, UniProt Q8NE63); cell-free assay, competition with immobilised ligand: 88.1%
Serine/threonine-protein kinase MRCK gamma (CDC42BPG, Homo sapiens, UniProt Q6DT37); competition binding: 93.6%
Serine/threonine-protein kinase MARK1 (MARK1, Homo sapiens, UniProt Q9P0L2); cell-free assay, competition with immobilised ligand: 91.1%
Tyrosine-protein kinase Fgr (FGR, Homo sapiens, UniProt P09769); cell-free assay, competition with immobilised ligand: 100%
Dual specificity tyrosine-phosphorylation-regulated kinase 2 (DYRK2, Homo sapiens, UniProt Q92630); cell-free assay, competition with immobilised ligand: 100%
Protein kinase C epsilon type (PRKCE, Homo sapiens, UniProt Q02156); cell-free assay, competition with immobilised ligand: 100%
Tyrosine-protein kinase ABL1, non-phosphorylated (ABL1, Homo sapiens, UniProt P00519, F317I); binding, competition with immobilised ligand: 100%
5'-AMP-activated protein kinase catalytic subunit alpha-1 (PRKAA1, Homo sapiens, UniProt Q13131); cell-free assay, competition with immobilised ligand: 100%
Serine/threonine-protein kinase RIO1 (RIOK1, Homo sapiens, UniProt Q9BRS2); cell-free assay, competition with immobilised ligand: 100%
eIF-2-alpha kinase GCN2, C-terminal kinase domain (EIF2AK4, Homo sapiens, UniProt Q9P2K8, S808G); cell-free assay, competition with immobilised ligand: 89.9%
ALK tyrosine kinase receptor (ALK, Homo sapiens, UniProt Q9UM73, L1196M); cell-free assay, competition with immobilised ligand: 100%
Serine/threonine-protein kinase WNK1 (WNK1, Homo sapiens, UniProt Q9H4A3); cell-free assay, competition with immobilised ligand: 100%
Phosphatidylinositol 5-phosphate 4-kinase type-2 gamma (PIP4K2C, Homo sapiens, UniProt Q8TBX8); cell-free assay, competition with immobilised ligand: 100%
Eukaryotic translation initiation factor 2-alpha kinase 1 (EIF2AK1, Homo sapiens, UniProt Q9BQI3); cell-free assay, competition with immobilised ligand: 100%
Ribosomal protein S6 kinase alpha-6, N-terminal kinase domain (RPS6KA6, Homo sapiens, UniProt Q9UK32); cell-free assay, competition with immobilised ligand: 100%
Serine/threonine-protein kinase ULK2 (ULK2, Homo sapiens, UniProt Q8IYT8); cell-free assay, competition with immobilised ligand: 100%
Phosphatidylinositol 4,5-bisphosphate 3-kinase catalytic subunit alpha isoform (PIK3CA, Homo sapiens, UniProt P42336, I800L); cell-free assay, competition with immobilised ligand: 100%
Insulin receptor (INSR, Homo sapiens, UniProt P06213); cell-free assay, competition with immobilised ligand: 100%
Tyrosine-protein kinase ZAP-70 (ZAP70, Homo sapiens, UniProt P43403); cell-free assay, competition with immobilised ligand: 85.4%
Mast/stem cell growth factor receptor Kit (KIT, Homo sapiens, UniProt P10721, V559D); cell-free assay, competition with immobilised ligand: 100%

Sample 4
Target: Diamine acetyltransferase 1 (Homo sapiens, UniProt P21673)
Action: inhibitor
Concentration: 10 µM
Reference: control
Endpoint: remaining activity
Target sequence (P21673 1-171): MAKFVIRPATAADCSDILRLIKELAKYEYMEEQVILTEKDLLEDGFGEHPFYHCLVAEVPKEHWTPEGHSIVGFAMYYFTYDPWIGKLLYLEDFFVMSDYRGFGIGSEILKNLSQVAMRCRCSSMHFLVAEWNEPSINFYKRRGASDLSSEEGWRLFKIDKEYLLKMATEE
CCCCCCCCCCCCC: 105%
COc1cc(C[C@H](C)[C@H](C)Cc2ccc3c(c2)OCO3)ccc1O: 100%
Cc1cc(O)c2c(c1)C(=O)c1cc(O)cc(O)c1C2=O: 85.4%
C=C(C)[C@@H]1CC[C@]2(C(=O)O)CC[C@]3(C)[C@H](CC[C@@H]4[C@@]5(C)CC[C@H](OC(=O)CC(C)(C)C(=O)O)C(C)(C)[C@@H]5CC[C@]43C)[C@@H]12: 92.8%
CCOC(=O)/C=C/c1ccc(OC)cc1: 99%
OCCc1ccccc1: 85.2%
C=CCSC: 74.6%
C[C@@H]1O[C@@H](O[C@H]2[C@H](Oc3cc(O)c4c(c3)O[C@H](c3ccc(O)cc3)CC4=O)O[C@H](CO)[C@@H](O)[C@@H]2O)[C@H](O)[C@H](O)[C@H]1O: 85.9%
C=C(C)[C@@H]1CC=C(CO)CC1: 101%
O=C(OC[C@H]1O[C@@H](OC(=O)c2cc(O)c(O)c(O)c2)[C@H](OC(=O)c2cc(O)c(O)c(O)c2)[C@@H](OC(=O)c2cc(O)c(O)c(O)c2)[C@@H]1O)c1cc(O)c(O)c(O)c1: 93.9%
O=C1CC(c2ccccc2)Oc2ccccc21 (stereo not drawn): 97.1%
C=C(CC[C@@H](C(=O)O)[C@H]1[C@H](O)C[C@@]2(C)C3=CC[C@H]4C(C)(C)[C@@H](O)CC[C@]4(C)C3=CC[C@]12C)C(C)C: 74.1%
CCCCC(CC)COC(=O)c1ccccc1C(=O)O (stereo not drawn): 95.6%
Oc1cc(O)c2cc(O)c(-c3ccc(O)c(O)c3)[o+]c2c1: 99.8%
